Results collected from several papers.
Each numbered part is a random draw from the data of one study; scales do not carry over between parts. Changes are numbered by the printed parent chain.

Study 1
Target: RNA binding protein fox-1 homolog 2, RRM domain, GST-SBP tag (RBFOX2, Homo sapiens, UniProt O43251-10, residues 100-194)
Technique: RNA Bind-n-Seq
Form: RNA
Sample: in vitro
Concentration: 365 nM
Setting: natural RNA segment, single round, ends assumed
Relative to: no-protein control
Direction: higher = stronger binding
All sequences stand within: GGGAGUUCUACAGUCCGACGAUC … UGGAAUUCUCGGGUGCCAA
Residues (chain): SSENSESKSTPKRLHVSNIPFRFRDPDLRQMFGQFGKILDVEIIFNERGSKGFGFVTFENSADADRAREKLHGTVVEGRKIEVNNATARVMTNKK
Sequence | RBNS enrichment (R)
UUAGAUACAGAAUGAGUUAGAUAAACUUGGCUUGUCUAGAGACCCAUGUCAUCUUAACCUAAAGGGAAAUCUUAUUGCGUUAUCAUAAAAUUGAUGAUAUCUUAGGGUCA | 0.536
AAGUGUACACACACACACCACACACCACACACACCCCACUGGCAGUCUUUGUGGAUUAGGAUGGGGGUGACAUAAUUUUCUUGAGUUUAACAGGAGUGCUUUACCCAAGU | 0.732
UCAGUGAAUGGAAGGAUGUCUUGAUGCUCAAGAGUCCCCGCCCCCAAAGUACGGGUAAUUCAGCCUGCACAGUUUCCUUUCACUCAUAGUUUCACAAUUACGAGUGAAAA | 0.222
CCCUGCCCAGCCAGCCAUCGGAAGAGAGGGCUGAGCCAUGGGGGUUUGGGGCUAAGAAGUUCACCAGCCCUGAGCCAUGGCGGCCCCUCAGCCUGCCUGAAGAGAGGAAA | 0.403
GUUAUGCCUUCUGGCUACUACAGAAUCUCCGCAGACCUUUUAGUUAUGAGUAGAAGCAAUAAGAAGGUGUCCUUAUGGUCUUAGGAAUAAUAGUUCCAAUGUAUUGGCAU | 1.05
GGCUGAGCCUCAGGGCUAAUUGUACUGAGUAAGGACUGCAGCUCCCGGUGACCGCGAGGAGUCGGUGAGGUGGGACUGGUGACUCUCAGAAGCUCCUCGGUGCACUUUUG | 0.891
UAUUCUGCACACAUAUCGGAAGCAGCAAGCGCUUUACACACUUGAGUAGUGGGAUAAGUCACUGUUUUCUUUACAAAACAAAACAGUCCUGUUGGGAAUGAUUGCUGUUG | 0.49
UUGCAAGUCUAACCUCUGAACAUAAAUUUGGUCAAAUAAUUGGAACAAAGGGAAACAGAUACUUGAUAUGAAAGCCAUAAUGACGGUGACUUGUGUCGUGGGGGAAAACA | 0.528

Study 2
Target: ABI1, truncated, D143A, DHFR fusion (Arabidopsis thaliana)
Technique: DHFR PCA, deep sequencing
Sample: yeast
Setting: methotrexate growth selection, single substitutions
Together with: (+)-ABA 0.0091 µM
Relative to: wild-type fitted maximum
Direction: higher = stronger binding
Starting sequence: PYL1, truncated, DHFR fusion (Arabidopsis thaliana); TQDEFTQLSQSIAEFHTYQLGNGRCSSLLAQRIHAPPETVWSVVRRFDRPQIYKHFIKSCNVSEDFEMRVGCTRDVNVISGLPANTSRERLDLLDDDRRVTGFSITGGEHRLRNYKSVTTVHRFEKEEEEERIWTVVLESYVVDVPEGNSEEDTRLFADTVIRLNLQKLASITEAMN; partner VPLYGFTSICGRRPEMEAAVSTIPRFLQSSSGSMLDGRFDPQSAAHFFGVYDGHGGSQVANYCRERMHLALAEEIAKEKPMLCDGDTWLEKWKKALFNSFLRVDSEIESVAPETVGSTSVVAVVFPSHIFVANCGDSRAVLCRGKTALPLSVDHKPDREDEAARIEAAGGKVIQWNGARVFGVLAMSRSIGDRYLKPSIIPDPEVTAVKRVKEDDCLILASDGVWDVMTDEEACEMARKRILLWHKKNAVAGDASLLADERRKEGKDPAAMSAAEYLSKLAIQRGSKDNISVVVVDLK
Change | relative binding score [%]
V62A | 4
L138I | 6.08
F56W | 1.55
K58I | 5.7
E125D | 9.12
E128H | 30.8
P50Q | -8.49
A13Y | 5.07
D92L | 2.7
N114L | -2.49
F124I | 61.5
D65H | 11.2
N77K | 50.5
L82K | -2.31
E109F | -10.8
V44E | -2.7
L20H | 54.7

Study 3
Target: CCND2, cyclin fold, Cln2 fusion (human)
Technique: yeast growth competition, sequencing
Sample: yeast
Setting: weak parent motif
Relative to: not given
Direction: higher = stronger binding
Starting sequence: PKN2 docking peptide (human); VSAVQKLDFSDTM; partner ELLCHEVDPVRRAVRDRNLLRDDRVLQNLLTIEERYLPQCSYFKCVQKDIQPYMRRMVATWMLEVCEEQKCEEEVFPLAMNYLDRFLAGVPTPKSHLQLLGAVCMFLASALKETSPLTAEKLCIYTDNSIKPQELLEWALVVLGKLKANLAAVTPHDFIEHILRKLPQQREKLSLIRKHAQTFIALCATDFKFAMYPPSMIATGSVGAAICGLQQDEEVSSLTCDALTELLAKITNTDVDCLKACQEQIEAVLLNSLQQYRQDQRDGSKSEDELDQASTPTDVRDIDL
Change | normalised enrichment score
F9R | 0.371
L7P | -0.0951
V4L | 0.492
V4Q | 0.196
Q5A L7A | -0.015
D8K | 0.371
K6N | 0.123
S10G | 0.543
V1T | 0.715
M13G | 0.698
A3N | 0.0837
L7V | 0.143
S10H | 0.449
D8R | 0.299
F9D | 0.0937
S10K | 0.813
D8F | 0.256
F9C | -0.122
L7A | 0.133
D11W | 0.45
T12E | 1.06
V4W | 0.358
D11Y | 0.302
V1H | 0.904
M13F | 0.366

Study 4
Target: Sal-like protein 4, full length isoform B (SALL4, Homo sapiens, UniProt Q9UJQ4-2, residues 1-616)
Technique: universal PBM
Form: double-stranded DNA, one strand shown
Sample: in vitro
Concentration: not given
Setting: 8-mer, flanks averaged, mean of replicates
Direction: higher = stronger binding
Sequence | E-score
GTCCCGAC | -0.258
CGAAGTAG | -0.0392
CCTGTCGA | -0.181
ACCTATAT | 0.305
AAGGGTCG | -0.0336
ATGTTTCG | 0.0809
CATATTGC | 0.172
AATTCCAC | 0.0428
AGGCACCT | -0.244
CGTGTTGC | -0.161
ACCATCGT | -0.131
CCATTGAC | -0.0191
GGTTAGGA | -0.112
ATTCGGGC | -0.195
ACTTAGCG | -0.0139
CAAGCCAC | -0.286
AGCTTGGG | -0.137
CGCGCATC | -0.064
AGCCTTAG | -0.0484
GGACACGA | -0.0251
AACGGAGG | -0.11
AGGGCCGA | -0.2
GACAGTCC | -0.168
GGGGGCTA | -0.248

For quick reference, copied from above (study 4):
Sequence | E-score
ATTCGGGC | -0.195
ACTTAGCG | -0.0139
CAAGCCAC | -0.286
AGCTTGGG | -0.137
CGCGCATC | -0.064
AGCCTTAG | -0.0484
